Measurements from different studies.
Every numbered part comes from another study and shows a few of its results, in no order.

Series 1
Target: Centromere-binding protein 1, full length, N-terminal tag (CBF1, Saccharomyces cerevisiae, UniProt P17106, residues 1-351)
Sequence of UniProt P17106 (whole entry, looked up): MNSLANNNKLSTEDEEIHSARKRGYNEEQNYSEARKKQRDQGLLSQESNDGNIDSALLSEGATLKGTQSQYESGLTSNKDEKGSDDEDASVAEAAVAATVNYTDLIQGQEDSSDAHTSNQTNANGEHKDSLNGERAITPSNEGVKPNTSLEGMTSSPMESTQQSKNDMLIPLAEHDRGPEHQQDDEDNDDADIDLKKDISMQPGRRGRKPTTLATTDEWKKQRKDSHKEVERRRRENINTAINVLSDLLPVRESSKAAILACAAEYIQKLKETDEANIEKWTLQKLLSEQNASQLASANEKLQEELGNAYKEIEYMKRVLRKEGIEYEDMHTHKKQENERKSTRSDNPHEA
Method: protein-binding microarray
Form: double-stranded DNA, one strand shown
Matrix: in vitro
Tested at: 0.8 µM
Notes: whole 60-bp probe, no competitor
Direction: higher = stronger binding
`GAATGCCACCAGATTTTGGTGATGAAAAATTGTTAGGTCTTGATTCGCTTGACGCTGCTG` gave a fluorescence intensity of 518 a.u.
`CTAAGTTGCCAAGCCAACGTGATGTCACAGGTCTTCGTCTTGATTCGCTTGACGCTGCTG` gave a fluorescence intensity of 891 a.u.
`CTAATCGGGCAAAAAAACGTGCTAAATGACAGGTTCGTCTTGATTCGCTTGACGCTGCTG` gave a fluorescence intensity of 803 a.u.
`CCTAACTACTATAGCCATCACTAATAGCTTCGTACAGTCTTGATTCGCTTGACGCTGCTG` gave a fluorescence intensity of 497 a.u.

Series 2
Target: Fragile X messenger ribonucleoprotein 1, C-terminal low-complexity region (Fmr1, Mus musculus, UniProt P35922)
Method: RNA Bind-n-Seq
Form: RNA
Matrix: in vitro
Tested at: 200 nM
Notes: whole 134-nt RNA, ends assumed
Added: 150 mM KCl
Baseline: input library
Direction: higher = stronger binding
`GGGAGUUCUACAGUCCGACGAUCACCAAGCAGGUGGGCAUCUUUGGGAAGUGGGGCAAGGGGGGGAUAGGGAGGGGGGUAACACUUUGGGAACAGGUGGUCCCAGGUCGUUUCUGGAAUUCUCGGGUGUCAAGG` has a log2 enrichment of 0.567.
With `GGGAGUUCUACAGUCCGACGAUCCACACACAACACGCACCCACACAGACACAGAGGGAAGGGGUUGGGAUGGGGACAGGGUGCACAGCAGGGCGGGGUAGGACCCCAGCCCCUUGGAAUUCUCGGGUGUCAAGG` the log2 enrichment was 1.32.
`GGGAGUUCUACAGUCCGACGAUCUGUGCUACACAUCGUAUGUACCGAAUCGGGGCCCCCCCGGGCCCCCCCGGGGCCCCCCCGGGGAAAGUAUUAUGUUACGCCGUUCGGAUCUGGAAUUCUCGGGUGUCAAGG` gave a log2 enrichment of -1.4.

Series 3
Target: Max-binding protein MNT, bHLH-zipper, MAX partner unstated (MNT, Homo sapiens, UniProt Q99583, residues 220-300)
Method: protein-binding microarray
Form: double-stranded DNA, one strand shown
Matrix: in vitro
Tested at: not given
Notes: k-mer, scored over probes, only values ≥0.25
Direction: higher = stronger binding
Residues (chain): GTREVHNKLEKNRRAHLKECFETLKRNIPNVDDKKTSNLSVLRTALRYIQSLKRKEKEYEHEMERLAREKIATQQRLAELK
For `TCCACGCA`, the E-score was 0.313.
`CCGTCACG` gave an E-score of 0.278.
The E-score of `CCCCACCA` is reported as 0.312.
For `CCTCGTGA`, the E-score was 0.42.

Further values, each from its own experiment
`PhoQ, residues 284 288 289 292 302 303 TAVSDG` gave a fold induction of 0.856 (PhoP, residues 12 14 15 18 19 IFFTR (Escherichia coli, UniProt P23836); Sort-seq, refers to: YFP reporter; E. coli; PhoQ-PhoP variant library, added: 10 µM Mg2+; baseline: high Mg2+ state, higher = stronger signaling).

Repeated from above (series 1):
`GAATGCCACCAGATTTTGGTGATGAAAAATTGTTAGGTCTTGATTCGCTTGACGCTGCTG` gave a fluorescence intensity of 518 a.u.
